Published values of several laboratories.
Lines come from different studies, so protocols differ. “And” joins repeats or separate records; there may be more than shown.
CDK6 with cyclin D3: Cyclin-dependent kinase 6, with cyclin D3 (CDK6, Homo sapiens, UniProt Q00534)
Chain of UniProt Q00534 (whole entry, looked up): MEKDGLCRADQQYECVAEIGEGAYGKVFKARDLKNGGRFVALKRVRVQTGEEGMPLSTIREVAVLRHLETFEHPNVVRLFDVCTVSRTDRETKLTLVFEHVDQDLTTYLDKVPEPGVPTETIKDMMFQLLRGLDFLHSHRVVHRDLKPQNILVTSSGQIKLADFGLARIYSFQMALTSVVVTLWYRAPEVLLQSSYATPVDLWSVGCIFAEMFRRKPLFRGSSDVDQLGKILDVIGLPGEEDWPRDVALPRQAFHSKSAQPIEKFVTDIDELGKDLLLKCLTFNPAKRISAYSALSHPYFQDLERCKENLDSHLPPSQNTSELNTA
CDK6: Cyclin-dependent kinase 6 (CDK6, Homo sapiens, UniProt Q00534)
CDK6 with cyclin D1: Cyclin-dependent kinase 6, with cyclin D1 (CDK6, Homo sapiens, UniProt Q00534)

| Compound | target | test | system | conditions | how to read | endpoint | value |
| --- | --- | --- | --- | --- | --- | --- | --- |
| Nc1ncc(-c2cc(-c3cnn(CC(F)(F)F)c3)ncc2F)nc1C(=O)NC1CNCC(F)C1 (stereo not shown) | CDK6 with cyclin D3 | enzyme activity | – | 1 µM | baseline: DMSO control | remaining activity | 57.5% |
| C=CC(=O)Nc1cccc(-c2cnc3[nH]cc(C(=O)NC(C)(C)C)c3n2)c1 | CDK6 with cyclin D3 | kinase activity | – | 0.1 µM | – | inhibition | 13% and 16% |
| Cc1cc(C)nc(Nc2ccc([C@@H]3CCCN(C(=O)/C=C/c4csc(C)n4)C3)nc2)n1 | CDK6 | enzyme activity, inhibitor, ADP detection | – | 1 µM | – | activity vs control | 23% |
| CCn1cc(C(=O)O)c(=O)c2c(N)c(F)c(NC3CCCCC3)cc21 | Cyclin-dependent kinase 6, with cyclin D2 (CDK6, Homo sapiens, UniProt Q00534) | kinase activity | – | 0.1 µM, with: ATP at Km | – | inhibition | 8.7% |
| CS(=O)(=O)Nc1cccc(-c2csc3cnc(Nc4ccc(N5CCN(CCCCCOc6cccc7c6C(=O)N(C6CCC(=O)NC6=O)C7=O)CC5)cc4)nc23)c1 (stereo not shown) | CDK6 | target engagement in cells | MOLT-4 | 1 µM | – | inhibition | > 90% |
| CCc1nnc(Nc2cnc([C@@H]3CCCN(C(=O)CCc4cccnc4)C3)cn2)s1 | CDK6 | enzyme activity, inhibitor, ADP detection | – | 1 µM | – | activity vs control | 35% |
| CN1C[C@@H](c2c[nH]c3cc(Br)ccc23)NC[C@@H]1c1c[nH]c2cc(Br)ccc12 | CDK6 with cyclin D3 | enzyme activity, inhibitor | – | 10 µM | – | remaining activity | 102% |
| NC(=O)C[C@H]1CCc2sc3ncnc(O[C@H]4CC[C@H](N5CCOCC5)CC4)c3c21 | CDK6 with cyclin D3 | enzyme activity, inhibitor | – | 10 µM | – | inhibition | 6% |
| COc1ccc(C(=O)/C=C/c2ccccc2-c2c[nH]c3ccc(C#N)cc23)c(O)c1 | CDK6 with cyclin D3 | enzyme activity, inhibitor | – | 20 µM | – | inhibition | 2% |
| C[C@H]1CN(C(=O)c2cn(-c3ccnc(N)n3)c3cc(C#CC4(O)CCCCC4)ccc23)CCN1 | CDK6 with cyclin D1 | enzyme activity, inhibitor | – | 1 µM | – | inhibition | 7% |
| Cc1cccc(O[C@H]2CCC[C@@H](C(C)CNCc3ccncc3)C2)c1 (relative stereo) | CDK6 with cyclin D3 | enzyme activity, inhibitor | – | 1 µM | – | inhibition | 4% |
| NC(=O)[C@@H](O)C[C@H]1CCc2sc3ncnc(O[C@H]4CC[C@H](N5CCOCC5)CC4)c3c21 | CDK6 with cyclin D1 | enzyme activity, inhibitor | – | 10 µM | – | inhibition | 4% |
| COCC12C(=O)NC3C4(C(OC)CC1O)C1CC5(O)C(OC)C(O)C(OC(C)=O)(C1C5OC(=O)c1ccccc1)C3(O)C(OC)C24 (stereo not shown) | CDK6 with cyclin D1 | kinase activity, inhibitor, ProQinase kinase profiling | – | 25 µM | baseline: control | remaining activity | 102% and 90% |

A few entries again:
| Compound | target | test | system | conditions | how to read | endpoint | value |
| --- | --- | --- | --- | --- | --- | --- | --- |
| NC(=O)C[C@H]1CCc2sc3ncnc(O[C@H]4CC[C@H](N5CCOCC5)CC4)c3c21 | CDK6 with cyclin D3 | enzyme activity, inhibitor | – | 10 µM | – | inhibition | 6% |
